Results of several laboratories.
Lines come from different studies, so protocols differ. Numbers after ± are the reported error.

Structure (SMILES) | assay | system | conditions | unbound fraction
CC(C)C[C@H](NC(=O)CNC(=O)c1cc(Cl)ccc1Cl)B(O)O | rapid equilibrium dialysis | normal hepatic function subjects, plasma | 70 or 280 ng/mL, 3 h, 37 °C | 0.0084 ± 0.0035
O=C(NOCCO)c1cc2nc[nH]c2c(F)c1Nc1ccc(Br)cc1Cl | – | ESRD on hemodialysis, plasma | oral, 50 mg, dosed after dialysis, median | 0.894%
COCCOc1nc(N)c2nc(O)n(Cc3ccc(C(=O)NCCOCCOCCOCCOCCOCCOCCOCCOCCOCCOCCN=[N+]=[N-])cc3)c2n1 | rapid equilibrium dialysis | dialyzed fetal bovine serum | – | 0.555
CNC(=O)c1cccc(-c2ccc3c(N4CCOC[C@@H]4C)nc(N4CCOC[C@@H]4C)nc3n2)c1 | – | human plasma | – | 0.0547
COCCOc1nc(N)c2nc(O)n(Cc3ccc(C(=O)NCCOCCOCCOCCOCCOCCOCCOCCOCCOCCOCCn4cc(CCC(=O)O)nn4)cc3)c2n1 | rapid equilibrium dialysis | dialyzed fetal bovine serum | – | 0.518
Clc1ccccc1C(c1ccccc1)(c1ccccc1)n1ccnc1 | equilibrium dialysis | 5 nM CYP26A1 in buffer | 1 µM, 12 h, pH 7.4, IC50 assay conditions | 0.661 ± 0.042
COCCOc1nc(N)c2[nH]c(=O)n(Cc3ccc(C(=O)O)cc3)c2n1 | rapid equilibrium dialysis | dialyzed fetal bovine serum | – | 0.746
C[C@H]1CO[C@@H]2Cn3cc(C(=O)NCc4ccc(F)cc4F)c(=O)c(O)c3C(=O)N12 | – | HIV-infected adults, plasma | intramuscular, at Cmax, every 4 weeks, median | 0.00075
CCCS(=O)(=O)Nc1ccc(F)c(C(=O)c2c[nH]c3ncc(-c4ccc(Cl)cc4)cc23)c1F | rapid equilibrium dialysis | 100% human plasma | 350 µM, 4 h | 7.9e-06 ± 9e-07

Some of these lines once more:
Structure (SMILES) | assay | system | conditions | unbound fraction
O=C(NOCCO)c1cc2nc[nH]c2c(F)c1Nc1ccc(Br)cc1Cl | – | ESRD on hemodialysis, plasma | oral, 50 mg, dosed after dialysis, median | 0.894%
